Measured values of several laboratories.
Each numbered part is a random draw from the data of one study; scales do not carry over between parts. Substitutions count along the parent as printed.

Sample 1
Target: RING finger protein unkempt homolog, zinc fingers 1-6, GST-SBP tag (UNK, Homo sapiens, UniProt Q9C0B0, residues 30-357)
Technique: RNA Bind-n-Seq
Molecule type: RNA
Medium: in vitro
Tested at: not given
Notes: RNA with constant flanks, ends assumed
Relative to: input RNA pool
Direction: higher = stronger binding
Shared flanks, not repeated: GGGAGUUCUACAGUCCGACGAUC … CAACAGAGGAUUGAGCAUCA
Construct (chain): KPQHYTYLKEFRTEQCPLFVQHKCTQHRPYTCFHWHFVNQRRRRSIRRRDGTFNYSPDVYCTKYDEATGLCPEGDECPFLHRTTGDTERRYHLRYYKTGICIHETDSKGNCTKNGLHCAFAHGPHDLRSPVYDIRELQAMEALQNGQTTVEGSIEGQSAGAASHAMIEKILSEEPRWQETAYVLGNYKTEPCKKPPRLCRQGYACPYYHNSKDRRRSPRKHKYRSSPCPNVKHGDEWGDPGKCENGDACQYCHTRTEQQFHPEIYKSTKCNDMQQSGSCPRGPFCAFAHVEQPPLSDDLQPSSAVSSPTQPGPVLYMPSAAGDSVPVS
Sequence	bound/input enrichment [ratio]
GAACAGGAGCAGCAUAGGCUGUUUGAGCUUUGGGGAAAUGAACUUUGCUUUUUAUAUUUAACCCGGAUACUUUUAUAUGAUGGGUGCUUUGAGUGUGAAUGCAGCAGGCUCUCUUGUUUC	0.401
GAAAAAUUUGAAAUGUUUUUGGUUCACUAGUACAAUGUUUGGUUUUAUUCCUAAAGUAAACCGCUAUCUAAGAGAGGGCAUUUUCACUUUUUUUUUUUUAAAUUUUGAGACAGGCUCUCA	0.965
GUAGUUGGAGGGUACUUCGGCAUUCAGCGCUGCAAGACUUUGGACUGUUACGACCCAACUUCCGAUGUGUGGAACAGCAUAACCACUGUUCCCUACUCUCUGAUCCCUACUGCAUUCGUC	0.0759
GCUGAAGAUUUAAUUUGUGAUACCUUUGUAUGUAUGAGACACAUUCCAAAGAGCUCUAACUAUGACCGGUCCUGAUUACUAAAGAAGCUUCUUUACUGGCCUCAAUUUCUAGCUUUCAUG	0.132
UUAGAUGUGACUGUACAGUCCUUUGGAUGGUCUGAUAGAGCAAAGGUAAAAACAGAUGAUACCGCAAGAAUUUAUCAGCCUAAGCGUUAUGCUUUGUCACCCAAGACAACGAUUACAAUG	0.205
AAGUUACAGAUUUUAGCCAGUCUUUGCUUUUAUACUUUUGUGAAAUUUAAUUUCUCUCUACCGCACCUUCCUUUUUCGUUUUCAGUUAUCAAAAGUGACUUUGACCUCAUAAAAGAGUUG	0.507
AACCAAGGCAUUGCUCCCGUCCAGGUCUGUACCAAUCUCUUGAUCAAGCAAGUGGUGGAAGCCGCUUGUGGCUCACAUCAUUCAAUGGCUCUGGCAGCUGAUGGAGAGGUGUUUGCUUGG	0.0741
CCUCUGGAAGCCUUGCGCAGAGCUUACUUUGUAAUUGUUGGAGAAUAACUGCUGAAUUUUCCGCUGUUUUGAGUUGAUUCGCACCACUGCACCACAACUCAAUAUGAAAACUAUUUAACU	0.0987
CCAAGUGGACUGUUUCUGGCCUCGAGUCCGCUGCUGCCCAGCAUACACUUCUGGAGCAGCCUCCGUCCUGUCGCCCCACUGAGUCCUGCCAGGCUGCAAGGGCCGAACACACUUUUCCAG	0.122
AGGAUUAACAAUGGACAACACAAAGCCCAGUCUUACUAUUUAUAUGUACAGUAUUUGGUGACCGAGAGCAAAGGAAAAACACAUCAGAACAGUUGCCUUAACACUGAAAAACAUACCCUG	0.141
UCAGCCAUUGGUGUGCACUCAUCUUUAGCACCAUUGGUGAAAAUUCUCGAGAGCUGUGGAACCGAGUCAAAGAUUGAGCCAGAAGUCAAUGACUCCCUGGGGGUUUACUGCAUUGAUGCC	0.275

Sample 2
Target: ABI1, truncated, D143A, DHFR fusion (Arabidopsis thaliana)
Technique: DHFR PCA, deep sequencing
Medium: yeast
Notes: methotrexate growth selection, single substitutions
With: (+)-ABA 200 µM
Relative to: wild-type fitted maximum
Direction: higher = stronger binding
Starting sequence: PYL1, truncated, DHFR fusion (Arabidopsis thaliana); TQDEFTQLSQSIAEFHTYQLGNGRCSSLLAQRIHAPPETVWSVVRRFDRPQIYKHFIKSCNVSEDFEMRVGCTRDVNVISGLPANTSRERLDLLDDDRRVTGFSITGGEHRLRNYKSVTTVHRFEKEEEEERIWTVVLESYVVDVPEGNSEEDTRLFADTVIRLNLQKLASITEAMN
Change	relative binding score [%]
T119Q	93.9
E64T	100
E89W	-6.7
T154Y	-4.44
I172F	86.7
R74V	-6.47
C72D	97.4
Y53D	0.152
N61R	103
K54W	18.8
F66I	95.3
L91H	6.46
M176S	98.4
V161R	-4.46
K54P	-15.7
R24N	91.3
S63K	100
P83I	6.04
R113D	86.1
E131H	102
K116V	64.9
T39E	100
N149E	44.4
V100P	-9.26
N77Y	106

Sample 3
Target: CEP164, C-terminal peptide (human)
Technique: DHFR complementation, deep sequencing
Medium: yeast
Notes: single substitutions, model-inferred values
Relative to: wild type
Direction: higher = weaker binding
Starting sequence: PDZK1, PDZ domain 2 (human); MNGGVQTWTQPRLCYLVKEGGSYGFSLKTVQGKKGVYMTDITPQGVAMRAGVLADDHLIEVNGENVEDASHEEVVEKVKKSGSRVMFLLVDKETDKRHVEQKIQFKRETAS; partner HNRVKVYRF
Change	binding free energy change
E73R	0.168 kcal/mol
D68Q	0.107 kcal/mol
M48H	-0.258 kcal/mol
E73D	-0.0388 kcal/mol
Q101A	-0.121 kcal/mol
V52G	2.04 kcal/mol
E19G	0.334 kcal/mol
S83P	-0.115 kcal/mol
E19H	0.209 kcal/mol
Q6A	-0.0203 kcal/mol
E108W	-0.207 kcal/mol
C14K	0.683 kcal/mol
F25P	1.83 kcal/mol
E93F	-0.22 kcal/mol
V66E	0.987 kcal/mol
S70G	-0.0107 kcal/mol
S111V	-0.113 kcal/mol

Sample 4
Target: Prothrombin, mature alpha-thrombin (F2, Homo sapiens, UniProt P00734)
Technique: aptamer microarray, sandwich
Molecule type: DNA with 2'F-ANA
Medium: in vitro
Tested at: 200 nM
Notes: whole 15-mer aptamer, many near background
With: Cy3 exosite-II aptamer, 400 nM
Direction: higher = stronger binding
Sequence: GGTTGGTGTGGTTGG
Modification	mean fluorescence intensity
2'F-ANA at 1 4 5 6 7 8 9 11 12	87.6 a.u.
2'F-ANA at 2 5 6 7 8 12 13 14	47.6 a.u.
2'F-ANA at 6 7 9 13 14 15	154 a.u.
2'F-ANA at 1 5 7 8 11 13 14	43.5 a.u.
2'F-ANA at 3 8 13 14 15	546 a.u.
2'F-ANA at 2 3 4 6 7 12 14	317 a.u.
2'F-ANA at 2 3 4 5 10 12 13 14 15	102 a.u.
2'F-ANA at 1 4 7 8 11 13 15	101 a.u.
2'F-ANA at 1 6 8 11 14	54.3 a.u.
2'F-ANA at 1 2 5 9 11	100 a.u.
2'F-ANA at 4 9 11 14 15	78.8 a.u.
2'F-ANA at 1 3 4 5 6 7 8 9 10 13 14 15	46.4 a.u.
2'F-ANA at 2 6 7 9 13 14 15	105 a.u.
2'F-ANA at 2 3 4 5 6 8 9 10 13 15	51.2 a.u.
2'F-ANA at 3 4 6 8 9 10 13	356 a.u.
2'F-ANA at 3 4 6 8 11 12 13 15	775 a.u.
2'F-ANA at 5 7 9 10 12 14 15	47 a.u.
2'F-ANA at 3 5 7 8 12	304 a.u.
2'F-ANA at 1 3 7 8 11 13 14 15	101 a.u.

Sample 5
Target: CCND1, cyclin fold, Cln2 fusion (human)
Technique: yeast growth competition, sequencing
Medium: yeast
Notes: weak parent motif
Relative to: not given
Direction: higher = stronger binding
Starting sequence: WEE1 docking peptide (human); HKTFRKLRLFDTP
Change	normalised enrichment score
HKTFRTLRLFDTP [K6T]	-0.392
HKTFRKLDLFDTP [R8D]	0.14
HKTFIKLRLFDTP [R5I]	0.394
HWTFRKLRLFDTP [K2W]	0.406
HKTFRKLRCFDTP [L9C]	-0.351
HKTFRKDRLFDTP [L7D]	-0.511
HKTFRKLRLFVTP [D11V]	0.0246
HKKFRKLRLFDTP [T3K]	-0.675
HKTFRKVRLFDTP [L7V]	-0.433
HKTFRKARLFDTP [L7A]	-0.727
HKTFRKLRLFDTA [P13A]	0.0254
HKTFRKLALFDTP [R8A]	0.0616
HETFRKLRLFDTP [K2E]	0.125
HKTFRNLRLFDTP [K6N]	0.395
MKTFRKLRLFDTP [H1M]	0.0962
HKTLRKLRLFDTP [F4L]	0.195
HKTFRKLRLFDQP [T12Q]	-0.122
CKTFRKLRLFDTP [H1C]	-0.317
HKTFRKLREFDTP [L9E]	0.321

A few entries again (sample 5):
Change	normalised enrichment score
HKTFRKARLFDTP [L7A]	-0.727
HKTFRKLRLFDTA [P13A]	0.0254
HKTFRKLALFDTP [R8A]	0.0616
HETFRKLRLFDTP [K2E]	0.125
HKTFRNLRLFDTP [K6N]	0.395
MKTFRKLRLFDTP [H1M]	0.0962
HKTLRKLRLFDTP [F4L]	0.195
